# Measurements of several laboratories.
# A part holds a random share of what one study measured.
# Chain of UniProt P17948 (whole entry, looked up): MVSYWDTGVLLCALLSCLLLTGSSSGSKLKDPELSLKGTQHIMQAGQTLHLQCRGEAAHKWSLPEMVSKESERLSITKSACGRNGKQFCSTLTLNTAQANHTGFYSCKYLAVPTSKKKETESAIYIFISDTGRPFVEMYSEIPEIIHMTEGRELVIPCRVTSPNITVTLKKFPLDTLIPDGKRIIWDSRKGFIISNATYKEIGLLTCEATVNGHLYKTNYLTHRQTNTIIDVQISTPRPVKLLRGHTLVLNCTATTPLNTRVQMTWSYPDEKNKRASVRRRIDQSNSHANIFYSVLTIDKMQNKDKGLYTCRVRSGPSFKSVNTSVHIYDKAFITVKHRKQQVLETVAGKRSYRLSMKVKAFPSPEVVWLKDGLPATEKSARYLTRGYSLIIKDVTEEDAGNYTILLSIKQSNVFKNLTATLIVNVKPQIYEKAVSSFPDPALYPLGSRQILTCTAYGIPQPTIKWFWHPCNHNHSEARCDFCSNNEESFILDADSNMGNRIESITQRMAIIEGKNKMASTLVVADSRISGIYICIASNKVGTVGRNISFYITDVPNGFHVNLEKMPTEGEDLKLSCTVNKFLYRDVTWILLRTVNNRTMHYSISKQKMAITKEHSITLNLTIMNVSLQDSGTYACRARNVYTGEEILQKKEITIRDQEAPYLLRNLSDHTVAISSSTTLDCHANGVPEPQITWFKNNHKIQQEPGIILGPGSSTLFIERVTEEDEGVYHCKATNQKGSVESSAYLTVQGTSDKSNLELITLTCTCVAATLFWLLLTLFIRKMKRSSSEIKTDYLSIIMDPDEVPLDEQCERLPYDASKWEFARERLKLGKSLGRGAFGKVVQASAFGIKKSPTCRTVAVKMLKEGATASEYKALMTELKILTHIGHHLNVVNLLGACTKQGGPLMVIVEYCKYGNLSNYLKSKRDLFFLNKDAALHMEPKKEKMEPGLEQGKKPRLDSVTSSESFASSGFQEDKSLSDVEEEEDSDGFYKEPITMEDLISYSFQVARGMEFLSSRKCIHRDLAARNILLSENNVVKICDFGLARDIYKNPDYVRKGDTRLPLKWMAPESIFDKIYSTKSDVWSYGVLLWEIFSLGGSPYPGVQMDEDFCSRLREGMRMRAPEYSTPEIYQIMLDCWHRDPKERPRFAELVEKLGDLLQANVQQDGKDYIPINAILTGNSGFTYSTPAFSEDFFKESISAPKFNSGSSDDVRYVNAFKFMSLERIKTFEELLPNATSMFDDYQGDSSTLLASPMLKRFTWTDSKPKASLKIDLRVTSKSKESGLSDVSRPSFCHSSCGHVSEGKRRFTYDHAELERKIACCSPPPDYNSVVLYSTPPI
# Chain of UniProt Q9UM73 (whole entry, unmodified, looked up): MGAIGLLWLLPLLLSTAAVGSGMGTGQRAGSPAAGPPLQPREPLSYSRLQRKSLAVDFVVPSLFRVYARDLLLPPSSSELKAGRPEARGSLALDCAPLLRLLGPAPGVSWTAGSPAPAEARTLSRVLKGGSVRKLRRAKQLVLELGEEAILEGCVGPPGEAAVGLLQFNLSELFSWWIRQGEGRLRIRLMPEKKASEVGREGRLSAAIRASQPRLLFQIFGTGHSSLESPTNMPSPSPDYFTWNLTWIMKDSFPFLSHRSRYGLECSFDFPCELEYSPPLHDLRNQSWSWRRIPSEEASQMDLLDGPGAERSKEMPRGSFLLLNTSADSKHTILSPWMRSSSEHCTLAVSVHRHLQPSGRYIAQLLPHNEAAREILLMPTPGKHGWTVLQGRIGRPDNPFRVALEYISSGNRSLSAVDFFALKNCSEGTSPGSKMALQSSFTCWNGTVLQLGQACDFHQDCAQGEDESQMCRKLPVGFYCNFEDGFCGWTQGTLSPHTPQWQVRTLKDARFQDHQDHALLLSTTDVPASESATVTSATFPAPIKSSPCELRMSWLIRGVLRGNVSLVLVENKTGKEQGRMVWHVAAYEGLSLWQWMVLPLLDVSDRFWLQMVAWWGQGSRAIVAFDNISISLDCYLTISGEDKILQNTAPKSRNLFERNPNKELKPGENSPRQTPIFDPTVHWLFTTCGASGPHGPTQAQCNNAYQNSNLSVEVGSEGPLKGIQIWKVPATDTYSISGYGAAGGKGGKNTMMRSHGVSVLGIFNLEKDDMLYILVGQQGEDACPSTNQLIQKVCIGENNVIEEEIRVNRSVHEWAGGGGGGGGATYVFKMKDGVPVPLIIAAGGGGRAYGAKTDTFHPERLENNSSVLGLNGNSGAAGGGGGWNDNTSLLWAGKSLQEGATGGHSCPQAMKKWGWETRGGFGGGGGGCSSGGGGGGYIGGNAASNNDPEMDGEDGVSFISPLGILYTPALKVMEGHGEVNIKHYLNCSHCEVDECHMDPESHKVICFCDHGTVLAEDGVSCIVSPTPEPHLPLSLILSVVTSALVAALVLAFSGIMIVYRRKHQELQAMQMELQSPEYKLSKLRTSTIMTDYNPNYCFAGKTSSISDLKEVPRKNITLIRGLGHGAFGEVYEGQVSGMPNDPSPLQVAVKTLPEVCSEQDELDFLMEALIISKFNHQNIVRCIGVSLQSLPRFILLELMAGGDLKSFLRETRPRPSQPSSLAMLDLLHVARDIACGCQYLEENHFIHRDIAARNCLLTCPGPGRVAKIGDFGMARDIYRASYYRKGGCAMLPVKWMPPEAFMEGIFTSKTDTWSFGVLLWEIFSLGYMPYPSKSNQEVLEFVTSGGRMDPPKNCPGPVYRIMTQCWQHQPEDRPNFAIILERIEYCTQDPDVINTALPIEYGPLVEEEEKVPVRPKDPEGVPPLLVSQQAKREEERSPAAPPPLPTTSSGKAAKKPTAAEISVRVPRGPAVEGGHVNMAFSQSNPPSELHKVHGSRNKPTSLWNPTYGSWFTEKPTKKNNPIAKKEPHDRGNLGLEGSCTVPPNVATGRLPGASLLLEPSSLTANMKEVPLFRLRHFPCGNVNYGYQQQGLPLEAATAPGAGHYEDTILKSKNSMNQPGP
# Chain of UniProt Q92772 (whole entry, looked up): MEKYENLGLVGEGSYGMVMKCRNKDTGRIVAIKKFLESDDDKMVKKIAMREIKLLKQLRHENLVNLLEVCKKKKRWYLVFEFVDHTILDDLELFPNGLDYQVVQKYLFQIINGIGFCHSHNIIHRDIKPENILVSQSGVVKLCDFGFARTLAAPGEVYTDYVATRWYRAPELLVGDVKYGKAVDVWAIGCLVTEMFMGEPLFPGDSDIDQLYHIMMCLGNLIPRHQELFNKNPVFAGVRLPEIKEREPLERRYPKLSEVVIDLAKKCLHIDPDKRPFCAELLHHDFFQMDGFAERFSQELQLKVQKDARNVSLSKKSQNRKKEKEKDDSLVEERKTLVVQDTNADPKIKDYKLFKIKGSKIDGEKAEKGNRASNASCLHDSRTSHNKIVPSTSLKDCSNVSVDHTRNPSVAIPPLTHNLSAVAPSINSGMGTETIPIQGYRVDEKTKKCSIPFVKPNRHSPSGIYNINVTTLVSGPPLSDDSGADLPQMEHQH
# Chain of UniProt P07949 (whole entry, unmodified, looked up): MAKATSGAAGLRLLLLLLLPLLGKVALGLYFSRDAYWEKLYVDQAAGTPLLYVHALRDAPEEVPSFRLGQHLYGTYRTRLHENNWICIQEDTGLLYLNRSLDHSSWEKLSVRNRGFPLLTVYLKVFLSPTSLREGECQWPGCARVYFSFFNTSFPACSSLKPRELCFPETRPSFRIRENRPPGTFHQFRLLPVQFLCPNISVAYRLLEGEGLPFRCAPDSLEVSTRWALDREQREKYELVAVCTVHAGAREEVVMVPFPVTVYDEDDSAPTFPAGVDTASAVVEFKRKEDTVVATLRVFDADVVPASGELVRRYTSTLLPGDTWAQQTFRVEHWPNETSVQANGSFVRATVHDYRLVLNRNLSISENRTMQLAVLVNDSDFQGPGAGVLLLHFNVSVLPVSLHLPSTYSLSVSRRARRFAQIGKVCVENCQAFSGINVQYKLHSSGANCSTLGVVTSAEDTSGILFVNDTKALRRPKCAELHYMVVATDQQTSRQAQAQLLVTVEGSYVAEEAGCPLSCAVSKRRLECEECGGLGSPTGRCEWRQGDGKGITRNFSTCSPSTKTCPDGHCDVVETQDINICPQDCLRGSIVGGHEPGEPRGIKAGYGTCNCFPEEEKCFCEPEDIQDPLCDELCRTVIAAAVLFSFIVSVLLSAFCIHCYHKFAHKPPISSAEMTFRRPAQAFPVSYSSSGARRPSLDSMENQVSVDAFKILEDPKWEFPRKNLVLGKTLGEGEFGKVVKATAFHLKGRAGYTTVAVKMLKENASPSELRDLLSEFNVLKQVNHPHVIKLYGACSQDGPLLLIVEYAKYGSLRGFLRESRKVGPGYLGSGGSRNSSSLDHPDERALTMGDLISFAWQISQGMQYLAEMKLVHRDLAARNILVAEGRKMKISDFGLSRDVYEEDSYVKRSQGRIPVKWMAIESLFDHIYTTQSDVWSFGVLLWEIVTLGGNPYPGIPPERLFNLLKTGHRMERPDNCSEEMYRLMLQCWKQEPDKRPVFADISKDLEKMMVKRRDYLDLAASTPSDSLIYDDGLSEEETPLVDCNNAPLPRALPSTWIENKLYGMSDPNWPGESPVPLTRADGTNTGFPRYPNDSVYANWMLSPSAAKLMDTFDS

# Set 1 — technique: RNA Bind-n-Seq; molecule type: RNA; matrix: in vitro; tested at: not given; setting: RNA with constant flanks, ends assumed; relative to: input RNA pool; reading: higher = stronger binding
# Target: RING finger protein unkempt homolog, zinc fingers 1-6, GST-SBP tag (UNK, Homo sapiens, UniProt Q9C0B0, residues 30-357)
# Shared flanks, not repeated: GGGAGUUCUACAGUCCGACGAUC … CAACAGAGGAUUGAGCAUCA
# Construct (chain): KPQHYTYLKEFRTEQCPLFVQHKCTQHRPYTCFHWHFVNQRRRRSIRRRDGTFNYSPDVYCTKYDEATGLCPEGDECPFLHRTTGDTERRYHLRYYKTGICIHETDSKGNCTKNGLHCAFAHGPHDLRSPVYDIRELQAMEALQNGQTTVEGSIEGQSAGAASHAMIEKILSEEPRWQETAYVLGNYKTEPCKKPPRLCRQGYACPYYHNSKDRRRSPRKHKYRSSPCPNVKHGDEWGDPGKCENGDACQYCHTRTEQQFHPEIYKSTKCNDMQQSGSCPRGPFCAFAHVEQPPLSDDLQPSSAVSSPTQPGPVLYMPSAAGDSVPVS
Oligonucleotide,bound/input enrichment
AGCACCUGUCCACAUGGUGAGCCCGGUGCUCCCCAACCACCCCCGCCAUGAGGACCAAUGACCCGCCAGUGUAGAAUAAGUUUGGCCAGAUAAGGAGAUGGCACUGCCAAGUGAUACAUG,0.397 ratio
CCAAAGAAGAUACAGUUUGAAGACAGAAGUGUACUCUCUACAAUGCAAUUUACUGUACAGUCCGAAAGCAAAGUGUUAAAUGGAGAAGAUACUUGUUUUUAUUAAACAUUUUGAGAUUUA,0.144 ratio
GAGCAAAAACACAGGGAAGAACUGGAGCAAUUGAAGCAAUUGACUUUCAAGGACAGUAAGACCGAUUCUGUUGCUGUUAACAUUUCAAACUUGGUACUUGAGAAUCAACCACCUCGGAUU,0.235 ratio
AUAUAUAUACACACACACAUAUAUAUAUUUAGAAACGUGAGUGUUAAAGAUAGAAUUUGUUUCCGGACAAAUUUUAAGAAAAUGUGGGAAUACCAAAUGUCCUUUAUAAGAAAAAUAAAU,0.716 ratio
UAAGCCCGGAGCCCGGCGCUUUCCCCGCAAGAUGGACGGUUUCGCCGGCAGUCUCGAUGACCGUAUUUCUGCUGCAAGUACUUCUGAUGUUCAAGAUCGCCUGUCAGCUCUUGAGUCACG,0.0846 ratio
AUUCAGAAUCAUUUUGUGGACGAAUAUGAUCCAACAAUAGAGGAUUCCUACAGGAAGCAAGCCGUAAUUGAUGGAGAAACCUGUCUCUUGGAUAUUCUCGACACAGCAGGUCAAGAGGAG,0.265 ratio
UAUCAUGCCUUUUCUCUAGUUUCUCUUUCAGGAUGGAAAGAAUAUUUUAAAAACAACAUUUCCGGACUUAAACAUUUGAUUUCGGUACCAGAUGAAUUGCUAACCUGUUACUGAUAAUUU,0.866 ratio
UCAUUUGGGCGUGUCAGAGAGUCGUUACCUGUCAAGUAUCACCUACAGAAUAAGACCGACUCCGUUCAAGAUGUAGAAAUUUCUGUGGAGCCCAGUGAUGCCUUCAUGUUCUCAGGUCUC,0.164 ratio

# Set 2 — read-out: enzyme activity; mode: inhibitor; tested at: 0.5 µM; relative to: control
# Target: RAC-beta serine/threonine-protein kinase (AKT2, Homo sapiens, UniProt P31751)
# Chain of UniProt P31751 (whole entry, looked up): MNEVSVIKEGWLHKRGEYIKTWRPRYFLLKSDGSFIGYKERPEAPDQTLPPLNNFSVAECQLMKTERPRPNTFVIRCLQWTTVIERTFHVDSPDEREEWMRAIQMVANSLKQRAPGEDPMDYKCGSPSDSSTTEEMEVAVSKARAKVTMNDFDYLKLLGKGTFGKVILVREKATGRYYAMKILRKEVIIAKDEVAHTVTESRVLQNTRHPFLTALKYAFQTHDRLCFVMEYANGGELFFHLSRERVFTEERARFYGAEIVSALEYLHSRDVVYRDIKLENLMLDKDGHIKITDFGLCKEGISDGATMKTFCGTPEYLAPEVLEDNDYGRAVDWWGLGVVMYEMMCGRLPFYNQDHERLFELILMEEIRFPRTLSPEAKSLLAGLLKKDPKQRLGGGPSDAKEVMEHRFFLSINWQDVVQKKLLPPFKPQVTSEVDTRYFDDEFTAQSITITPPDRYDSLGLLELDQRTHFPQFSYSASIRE
SMILES,remaining activity [%]
CC(C)[C@H](CO)Nc1nc(Nc2cc(N)cc(Cl)c2)c2ncn(C(C)C)c2n1,100
Nc1ncnc2n[nH]c(Nc3ccc(F)cc3)c12,108
C#Cc1cccc(Nc2ncnc3cc(OCCOC)c(OCCOC)cc23)c1,108
NCCNc1ncc(C(N)=O)c(Nc2cccc(C(F)(F)F)c2)n1,90.9
COc1ccc(C(=O)Nc2sc3c(c2C(N)=O)CCCC3)cc1OC,97
CO[C@H]1C[C@@H]2CC[C@@H](C)[C@@](O)(O2)C(=O)C(=O)N2CCCC[C@H]2C(=O)O[C@H]([C@H](C)C[C@@H]2CC[C@@H](O)[C@H](OC)C2)CC(=O)[C@H](C)/C=C(\C)[C@@H](O)[C@@H](OC)C(=O)[C@H](C)C[C@H](C)/C=C/C=C/C=C/1C,96.1
CN(C)c1ccc(C=C2C(=O)Nc3ccccc32)cc1,98.1
O=C(CCCc1ccc(-c2ccccc2F)cc1)Nc1ccc(O)cc1,101
O=c1c2ccccc2[nH]c(=S)n1CCN1CCC(=C(c2ccc(F)cc2)c2ccc(F)cc2)CC1,101
OCC(O)CCON=C1C(c2c(O)[nH]c3ccccc23)=Nc2ccccc21 (stereo not drawn),90.1
N#CC(C#N)=C(N)/C(C#N)=C/c1ccc(O)cc1,92.8
Nc1[nH]nc2nc3ccccc3nc12,90.1
O=S(=O)(c1cccc2cnccc12)N1CCCNCC1,115

# Set 3 — technique: protein binding microarray; molecule type: double-stranded DNA, one strand shown; matrix: in vitro; tested at: not given; relative to: not given; reading: higher = stronger binding
# Target: Histone acetyltransferase KAT6A, winged helix 2, GST fusion (KAT6A, Homo sapiens, UniProt Q92794, residues 85-181)
# Setting: 8-mer, flanks averaged, mean of 2 arrays, mostly near background
# Construct (chain): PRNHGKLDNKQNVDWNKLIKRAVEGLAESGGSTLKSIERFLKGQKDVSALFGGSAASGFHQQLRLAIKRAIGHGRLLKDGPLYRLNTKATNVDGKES
Oligonucleotide,E-score
GACCCTCA,0.0277
CCTGCAGA,0.025
ATGATCAG,-0.0112
GCTCAGGA,0.104
ACTTTATA,-0.115
GACCTCGA,0.0945
ACGAGTAA,0.0125
CACCAACC,0.0928

# Set 4 — tested at: 1 µM
# SMILES: CC(=O)C1=C(C)N(c2cccc(C(F)(F)F)c2)C(=O)N[C@@H]1c1ccc(C#N)nc1
target,read-out,technique,remaining binding
"Cyclin-dependent kinase-like 2 (CDKL2, Homo sapiens, UniProt Q92772)",cell-free assay,competition with immobilised ligand,75.4%
"Receptor-type tyrosine-protein kinase FLT3 (FLT3, Homo sapiens, UniProt P36888, ITD)",cell-free assay,competition with immobilised ligand,61.2%
"5'-AMP-activated protein kinase catalytic subunit alpha-1 (PRKAA1, Homo sapiens, UniProt Q13131)",cell-free assay,competition with immobilised ligand,85.4%
"Phosphatidylinositol 4,5-bisphosphate 3-kinase catalytic subunit alpha isoform (PIK3CA, Homo sapiens, UniProt P42336, I800L)",cell-free assay,competition with immobilised ligand,75.4%
"Ribosomal protein S6 kinase alpha-6, N-terminal kinase domain (RPS6KA6, Homo sapiens, UniProt Q9UK32)",cell-free assay,competition with immobilised ligand,100%
"Serine/threonine-protein kinase MRCK gamma (CDC42BPG, Homo sapiens, UniProt Q6DT37)",,competition binding,79.3%
"Aurora kinase A (AURKA, Homo sapiens, UniProt O14965)",cell-free assay,competition with immobilised ligand,83.9%
"Cyclin-G-associated kinase (GAK, Homo sapiens, UniProt O14976)",cell-free assay,competition with immobilised ligand,97.2%
"Vascular endothelial growth factor receptor 1 (FLT1, Homo sapiens, UniProt P17948)",cell-free assay,competition with immobilised ligand,62.4%
"Serine/threonine-protein kinase RIO3 (RIOK3, Homo sapiens, UniProt O14730)",cell-free assay,competition with immobilised ligand,100%
"Serine/threonine-protein kinase WNK4 (WNK4, Homo sapiens, UniProt Q96J92)",cell-free assay,competition with immobilised ligand,100%
"Leucine-rich repeat serine/threonine-protein kinase 2 (LRRK2, Homo sapiens, UniProt Q5S007)",cell-free assay,competition with immobilised ligand,80.7%
"Cyclin-dependent kinase 15 (CDK15, Homo sapiens, UniProt Q96Q40)",cell-free assay,competition with immobilised ligand,100%
"Receptor-interacting serine/threonine-protein kinase 4 (RIPK4, Homo sapiens, UniProt P57078)",cell-free assay,competition with immobilised ligand,100%
"Proto-oncogene tyrosine-protein kinase receptor Ret (RET, Homo sapiens, UniProt P07949, M918T)",cell-free assay,competition with immobilised ligand,100%
"Wee1-like protein kinase 2 (WEE2, Homo sapiens, UniProt P0C1S8)",cell-free assay,competition with immobilised ligand,100%
"ALK tyrosine kinase receptor (ALK, Homo sapiens, UniProt Q9UM73, C1156Y)",cell-free assay,competition with immobilised ligand,100%
"NT-3 growth factor receptor (NTRK3, Homo sapiens, UniProt Q16288)",cell-free assay,competition with immobilised ligand,100%
"Receptor-type tyrosine-protein kinase FLT3 (FLT3, Homo sapiens, UniProt P36888, D835Y)",cell-free assay,competition with immobilised ligand,93.9%
"Tyrosine-protein kinase ABL1, phosphorylated (ABL1, Homo sapiens, UniProt P00519)",cell-free assay,competition with immobilised ligand,83.3%
"Homeodomain-interacting protein kinase 4 (HIPK4, Homo sapiens, UniProt Q8NE63)",cell-free assay,competition with immobilised ligand,100%
"Serine/threonine-protein kinase Nek6 (NEK6, Homo sapiens, UniProt Q9HC98)",cell-free assay,competition with immobilised ligand,100%
"cGMP-dependent protein kinase 2 (PRKG2, Homo sapiens, UniProt Q13237)",cell-free assay,competition with immobilised ligand,100%
"Receptor-type tyrosine-protein kinase FLT3 (FLT3, Homo sapiens, UniProt P36888)",cell-free assay,competition with immobilised ligand,100%
"Serine/threonine-protein kinase 38-like (STK38L, Homo sapiens, UniProt Q9Y2H1)",cell-free assay,competition with immobilised ligand,93.6%

# For quick reference, copied from above (set 1):
Oligonucleotide,bound/input enrichment
UAAGCCCGGAGCCCGGCGCUUUCCCCGCAAGAUGGACGGUUUCGCCGGCAGUCUCGAUGACCGUAUUUCUGCUGCAAGUACUUCUGAUGUUCAAGAUCGCCUGUCAGCUCUUGAGUCACG,0.0846 ratio
AGCACCUGUCCACAUGGUGAGCCCGGUGCUCCCCAACCACCCCCGCCAUGAGGACCAAUGACCCGCCAGUGUAGAAUAAGUUUGGCCAGAUAAGGAGAUGGCACUGCCAAGUGAUACAUG,0.397 ratio
UAUCAUGCCUUUUCUCUAGUUUCUCUUUCAGGAUGGAAAGAAUAUUUUAAAAACAACAUUUCCGGACUUAAACAUUUGAUUUCGGUACCAGAUGAAUUGCUAACCUGUUACUGAUAAUUU,0.866 ratio
GAGCAAAAACACAGGGAAGAACUGGAGCAAUUGAAGCAAUUGACUUUCAAGGACAGUAAGACCGAUUCUGUUGCUGUUAACAUUUCAAACUUGGUACUUGAGAAUCAACCACCUCGGAUU,0.235 ratio
AUAUAUAUACACACACACAUAUAUAUAUUUAGAAACGUGAGUGUUAAAGAUAGAAUUUGUUUCCGGACAAAUUUUAAGAAAAUGUGGGAAUACCAAAUGUCCUUUAUAAGAAAAAUAAAU,0.716 ratio
CCAAAGAAGAUACAGUUUGAAGACAGAAGUGUACUCUCUACAAUGCAAUUUACUGUACAGUCCGAAAGCAAAGUGUUAAAUGGAGAAGAUACUUGUUUUUAUUAAACAUUUUGAGAUUUA,0.144 ratio
